Results gathered from unrelated publications.
Lines come from different studies, so protocols differ. ± gives the spread as reported.

For `C[n+]1c(/C=C/c2ccc(N(c3ccccc3)c3ccccc3)cc2)cc(/C=C2\Sc3ccccc3N2CCCN2CCCC2)c2ccccc21`, the ΔTm was 7.4 °C (Pu27 G-quadruplex DNA; CD melting; 5 µM, 60 mM KCl, added: 5 µM G4-DNA).
`C[C@@H]1O[C@@H](O[C@H]2[C@H](O[C@H]3CC[C@@]4(C)[C@@H](CC[C@]5(C)[C@@H]4CC=C4[C@@H]6CC(C)(C)CC[C@]6(C(=O)O)CC[C@]45C)[C@]3(C)CO)OC[C@H](O[C@@H]3O[C@H](CO)[C@@H](O)[C@H](O)[C@H]3O)[C@@H]2O)[C@H](O)[C@H](O)[C@H]1O` has an EC50 of 4.2 ± 1.2 µM (PPARs; reporter gene, agonist; HepG2 transfected PPRE-luciferase and PPAR; 20 h).
`CC(=O)N[C@@H](Cc1ccc(O)cc1)CN(CC(=O)N[C@@H](CCCCN)CN(CC(=O)N[C@@H](Cc1ccccc1)CN(CC(=O)N[C@H]1CCCCNc2c(F)c(F)c(c(F)c2F)S(=O)(=O)c2c(F)c(F)c(c(F)c2F)NCCCC[C@@H](CN(CC(=O)N[C@@H](C)CN(CC(N)=O)S(C)(=O)=O)S(C)(=O)=O)NC(=O)CN(S(=O)(=O)c2ccc3ccccc3c2)C[C@H](Cc2ccccc2)NC(=O)CN(S(=O)(=O)CCN)C1)S(=O)(=O)CC(C)C)S(=O)(=O)CCN)S(C)(=O)=O` has an IC50 of 38.1 ± 7.02 µM (CREB; reporter gene, inhibitor, CRE Renilla luciferase; HEK-293T; 30 min, added: forskolin 10 µM for 5 h).
`COc1ccc(-c2cc(C(=O)Nc3cccc(Cl)c3C)no2)cc1O`: “calcium retention capacity ratio” 9.59 ± 0.85 (mitochondrial permeability transition pore, mouse; isolated mouse liver mitochondria; 1.56 µM; reference: untreated).
`CCCCCCCCCC1N=C(N)N=C(N)N1c1ccc(Cl)cc1` (racemic) gave an EC50 of 150 µM (membrane disruption; SYTOX Green uptake; Escherichia coli, ATCC 25922).
`CCc1nc2sc(C)c(C)c2c(=O)n1N` — result for “adjusted retention time”: 1.14 min (none; weak affinity chromatography-MS; ethanolamine reference column).
`Cc1ccc(Cl)cc1NC(=O)c1cc(-c2cccc(O)c2)on1` gave an EC50 of 0.0035 ± 0.0007 µM (mitochondrial permeability transition pore, mouse; mitochondrial swelling inhibition; isolated mouse liver mitochondria; added: Ca2+).
For `CC(=O)N[C@@H](Cc1ccc(O)cc1)CN(CC(=O)N[C@@H](CCCCN)CN(CC(=O)N[C@@H](Cc1ccccc1)CN(CC(=O)N[C@H]1CCCCNc2c(F)c(F)c(c(F)c2F)S(=O)(=O)c2c(F)c(F)c(c(F)c2F)NCCCC[C@@H](CN(CC(=O)N[C@@H](C)CN(CC(N)=O)S(=O)(=O)CC(C)C)S(C)(=O)=O)NC(=O)CN(S(=O)(=O)CC(C)C)C[C@H](CC(C)C)NC(=O)CN(S(=O)(=O)CCN)C1)S(=O)(=O)CC(C)C)S(=O)(=O)CCN)S(C)(=O)=O`, the IC50 was 37.4 ± 14.8 µM (CREB; reporter gene, inhibitor, CRE Renilla luciferase; HEK-293T; 30 min, added: forskolin 10 µM for 5 h).
For `CC[C@H](C)[C@@H]1NC(=O)[C@H](CCCNC(=N)N)NC(=O)[C@H](C)NC(=O)CNC(=O)[C@H](CCCCN)NC(=O)[C@H](CCCNC(=N)N)NC(=O)[C@H](C(C)C)NC(=O)[C@H](C)NC(=O)[C@@H]2CSSC[C@@H]3NC(=O)[C@H](CO)NC(=O)[C@H]([C@@H](C)O)NC(=O)CNC(=O)[C@H](CCCNC(=N)N)NC(=O)[C@@H]4CCCN4C(=O)[C@H](CSSC[C@@H](C(=O)N[C@@H](CC(C)C)C(=O)O)NC(=O)[C@H](CCCCN)NC(=O)[C@H](CC(C)C)NC(=O)[C@H](CC(C)C)NC(=O)[C@H](Cc4ccccc4)NC(=O)[C@H](CO)NC(=O)[C@H](CC(N)=O)NC3=O)NC(=O)[C@H](CC(=O)O)NC(=O)[C@H](CSSC[C@H](NC(=O)[C@H](CCSC)NC(=O)[C@@H]3CCCN3C(=O)[C@@H](NC(=O)[C@H](CCC(N)=O)NC(=O)CNC(=O)[C@H](Cc3ccc(O)c(I)c3)NC(=O)[C@@H](N)CCCCN)C(C)C)C(=O)N[C@@H](CC(=O)O)C(=O)N[C@@H](C)C(=O)NCC(=O)N[C@@H](CCC(=O)O)C(=O)N[C@@H](CCC(N)=O)C(=O)N2)NC(=O)[C@H](CC(C)C)NC(=O)[C@H](CCCCN)NC(=O)CNC1=O` [iodine-125 labelled], the Bmax was 108 ± 8.4 fmol/mg protein (CART peptide binding site (rat); differentiated PC-12 membranes; 1 h, room temperature).
Under p-EGFR level, `COCC1CN(C2CCN(c3cc(OC)c(Nc4ncc(Br)c(Nc5ccc6c(c5P(C)(C)=O)OCCO6)n4)cc3C)CC2)C1` is recorded as “inhibited” (EGFR Del19/T790M/C797S; western blot; Ba/F3 EGFR Del19/T790M/C797S, mouse xenograft, tumour tissue; oral, 20 mg/kg single dose, 1 to 8 h).
The IC50 of `CC(=O)N[C@@H](Cc1ccc(O)cc1)CN(CC(=O)N[C@@H](CCCCN)CN(CC(=O)N[C@@H](Cc1ccccc1)CN(CC(=O)N[C@H]1CCCCNc2c(F)c(F)c(c(F)c2F)S(=O)(=O)c2c(F)c(F)c(c(F)c2F)NCCCC[C@@H](CN(CC(=O)N[C@@H](C)CN(CC(N)=O)S(=O)(=O)c2ccc(Cl)cc2)S(C)(=O)=O)NC(=O)CN(S(=O)(=O)CC(C)C)C[C@H](CC(C)C)NC(=O)CN(S(=O)(=O)CCN)C1)S(=O)(=O)CC(C)C)S(=O)(=O)CCN)S(C)(=O)=O` is reported as 23.4 ± 7.97 µM (CREB; reporter gene, inhibitor, CRE Renilla luciferase; HEK-293T; 30 min, added: forskolin 10 µM for 5 h).
With `O=C(N/N=C/c1ccc2c(ccc[n+]2Cc2ccccc2)c1)N/N=C/c1ccc2c(ccc[n+]2Cc2ccccc2)c1` the delta Tm was 11 to 14 °C (G-quadruplex DNA 22CTA antiparallel; FRET melting; 1 µM, K10 buffer, added: DNA 0.2 µM).
`Cc1ncc(Cl)cc1NC(=O)c1cc(-c2ccc(F)c(O)c2)on1` gave an EC50 of 0.0155 ± 0.0018 µM (mitochondrial permeability transition pore, mouse; mitochondrial swelling inhibition; isolated mouse liver mitochondria; added: Ca2+).
For `CC1(C)CC[C@]2(C(=O)O)CC[C@]3(C)C(=CC[C@@H]4[C@@]5(C)CC[C@H](O[C@@H]6OC[C@H](O[C@@H]7O[C@H](CO)[C@@H](O)[C@H](O)[C@H]7O)[C@H](O)[C@H]6O)[C@@](C)(CO)[C@@H]5CC[C@]43C)[C@@H]2C1`, the EC50 was 0.9 ± 0.2 µM (PPARs; reporter gene, agonist; HepG2 transfected PPRE-luciferase and PPAR; 20 h).
The ΔTm of `COc1ccc2c(c1)c1c(C)c3cnccc3c(C)c1n2CCCN1CCN(C)CC1` is reported as 9 °C (PDGFR-β NHE 41-mer G-quadruplex DNA; CD thermal melt; reference: no compound).
`O=S(=O)([O-])CCCOCC1(COCCCS(=O)(=O)[O-])CSCCCSCC(COCCCS(=O)(=O)[O-])(COCCCS(=O)(=O)[O-])CSCCCSC1.[Na+].[Na+].[Na+].[Na+]` gave a pCu of 14.8 (Cu(I); competition titration; 10 µM, pH 7.0, ionic strength 0.1, added: Cu(I) 1 µM; higher = stronger binding).
The EC50 of `C[C@@H](N)C1CCN(S(=O)(=O)c2cccc3c(=O)[nH]ccc23)CC1` is reported as 0.95 µM (ROCK; MLC2 phosphorylation, inhibitor, Western blot; hBMVEC; 1 h, added: LPA 5 min).
`CC(=O)N[C@@H](Cc1ccc(O)cc1)CN(CC(=O)N[C@@H](CCCCN)CN(CC(=O)N[C@@H](Cc1ccccc1)CN(CC(=O)N[C@H]1CCCCNc2c(F)c(F)c(c(F)c2F)S(=O)(=O)c2c(F)c(F)c(c(F)c2F)NCCCC[C@@H](CN(CC(=O)N[C@@H](C)CN(CC(N)=O)S(=O)(=O)CCNC(=N)N)S(C)(=O)=O)NC(=O)CN(S(=O)(=O)CC(C)C)C[C@H](CC(C)C)NC(=O)CN(S(=O)(=O)CCN)C1)S(=O)(=O)CC(C)C)S(=O)(=O)CCN)S(C)(=O)=O` has an IC50 of > 100 µM (CREB; reporter gene, inhibitor, CRE Renilla luciferase; HEK-293T; 30 min, added: forskolin 10 µM for 5 h).
`Cc1cccc(C)c1NC(=O)c1cc(-c2cccc(O)c2)on1` — result for “calcium retention capacity ratio”: 8.12 ± 0.59 (mitochondrial permeability transition pore, mouse; isolated mouse liver mitochondria; 1.56 µM; reference: untreated).
`CC1OC(Oc2c(-c3ccc(O)cc3)oc3cc(O)cc(O)c3c2=O)C(OC(=O)C=Cc2ccc(O)cc2)C(O)C1OC(=O)C=Cc1ccc(O)cc1` (stereo not shown) gave an inhibition of 75.7% (CCR2; macrophage infiltration; mouse, thioglycollate peritonitis, peritoneum; intraperitoneal, 50 mg/kg).
`O=C(Cn1ccnc1)N[C@H]1C[C@@H]1c1ccc(OCc2ccccc2)cc1` — result for “Soret peak wavelength”: 424 nm (aromatase (CYP19), recombinant; absorption spectroscopy; no androstenedione).
Under “BRD3 peptide level increase”, `Cc1ncsc1-c1ccc(CNC(=O)[C@@H]2C[C@H](O)CN2C(=O)[C@@H](NC(=O)CN2CCN(C3CN(CCNC(=O)C[C@@H]4N=C(c5ccc(Cl)cc5)c5c(sc(C)c5C)-n5c(C)nnc54)C3)CC2)C(C)(C)C)cc1` is recorded as 8% (Spodoptera frugiperda BRD3; degrader, targeted MS; Spodoptera frugiperda L5 larvae; injection, 0.1 nmol/mg; reference: DMSO).
For `CC[C@H](C)[C@H](NC(=O)[C@H](CCC(=O)O)NC(=O)[C@H](CO)NC(=O)[C@@H](NC(=O)[C@@H](N)CO)C(C)C)C(=O)N[C@@H](CCC(N)=O)C(=O)N[C@@H](CC(C)C)C(=O)N[C@@H](CCSC)C(=O)N[C@@H](Cc1c[nH]cn1)C(=O)N[C@@H](CC(N)=O)C(=O)N[C@@H](CC(C)C)C(=O)NCC(=O)N[C@@H](CCCCN)C(=O)N[C@@H](Cc1c[nH]cn1)C(=O)N[C@@H](CC(C)C)C(=O)N[C@@H](CC(N)=O)C(=O)N[C@@H](CO)C(=O)N[C@@H](CCSC)C(=O)N[C@@H](CCC(=O)O)C(=O)N[C@@H](CCCNC(=N)N)C(=O)N[C@H](C(=O)N[C@@H](CCC(=O)O)C(=O)N[C@@H](Cc1c[nH]c2ccccc12)C(=O)N[C@@H](CC(C)C)C(=O)N[C@@H](CCCNC(=N)N)C(=O)N[C@@H](CCCCN)C(=O)N[C@@H](CCCCN)C(=O)N[C@@H](CC(C)C)C(=O)N[C@@H](CCC(N)=O)C(=O)N[C@@H](CC(=O)O)C(=O)N[C@H](C(=O)N[C@@H](Cc1c[nH]cn1)C(=O)N[C@@H](CC(N)=O)C(=O)N[C@@H](Cc1ccccc1)C(=O)O)C(C)C)C(C)C`, “reduction of FRET signal” read ~10% (PTH1 receptor; cAMP level, Epac FRET sensor; HEK293; 100 nM, 10 s).
For `Cc1sc2ncn(CC(=O)N3CCCC3)c(=O)c2c1-c1cccc(Br)c1`, “amplitude 3 area” read 4% (NMDA receptor, mouse; single-channel current, outside-out patch; cortical neurons; concentration not given, added: Ca2+ 0.5 mM).
For `O=C1Nc2ccc(-c3ccc(-c4ccc(O)cc4)cc3)cc2/C1=C/c1ccc(N2CCNCC2)cc1`, the selectivity ratio was 1 (FGFR3; reference: IC50 FGFR3 over lowest IC50).
